{"data": "Results gathered from unrelated publications", "rep main protease": "Replicase polyprotein 1ab, main protease (rep, Severe acute respiratory syndrome coronavirus 2, UniProt P0DTD1)", "note": "Each line is one published result; not all experiments were run side by side."}
{"Molecule": "CC1(C)CC[C@]2(C(=O)O[C@@H]3O[C@H](CO)[C@@H](O)[C@H](O)[C@H]3O)CC[C@]3(C)C(=CC[C@@H]4[C@@]5(C)CC[C@H](O[C@@H]6O[C@H](C(=O)O)[C@@H](O)[C@H](O)[C@H]6O)C(C)(C)[C@@H]5CC[C@]43C)[C@@H]2C1", "tested on": "Spike glycoprotein (Severe acute respiratory syndrome coronavirus 2, UniProt P0DTC2)", "test": "binding, BLI", "endpoint": "Kd", "value": "90.4 µM"}
{"Molecule": "LVYFLQSINFVRIIM", "tested on": "human CD4 T cells", "test": "AIM", "system": "peptide", "endpoint": "responding donors", "value": "7%"}
{"Molecule": "Nc1ncnc2c([C@@H]3N[C@H](CO)[C@@H](O)[C@H]3O)c[nH]c12", "tested on": "Marburg virus", "test": "viral replication, antibody staining", "system": "HeLa, Musoke", "conditions": "100 µM, 12 h", "endpoint": "infected cells", "value": "0.6%"}
{"Molecule": "Cn1cnc(Cn2c(=O)[nH]/c(=N\\c3cc4cn(C)nc4cc3Cl)n(Cc3cc(F)c(F)cc3F)c2=O)n1", "system": "human, normal renal function", "conditions": "oral, 375 mg, single dose, geometric mean", "endpoint": "AUC(0-last)", "value": "977 µg·h/mL"}
{"Molecule": "YLTNDVSFLA", "test": "AIM", "system": "peptide, CD8+ T cells from PBMC, human donors", "conditions": "HLA-A*02:01 restricted, unit not given", "how to read": "relative to: positive over tested donors", "endpoint": "frequency of responding donors", "value": 100}
{"Molecule": "CC[C@H](C)[C@H](NC(=O)[C@H](CC(C)C)NC(=O)[C@H](Cc1c[nH]c2ccccc12)NC(=O)[C@H](CCC(N)=O)NC(=O)[C@@H](NC(=O)[C@H](Cc1ccccc1)NC(=O)[C@H](C)NC(=O)[C@H](CCCCNC(=O)COCCOCCNC(=O)COCCOCCNC(=O)CC[C@H](NC(=O)CCCCCCCCCCCCCCCCCCC(=O)O)C(=O)O)NC(=O)[C@H](CCC(N)=O)NC(=O)[C@H](C)NC(=O)[C@@H](NC(=O)[C@H](CCCCN)NC(=O)[C@H](CC(=O)O)NC(=O)[C@H](CC(C)C)NC(=O)C(C)(C)NC(=O)[C@@H](NC(=O)[C@H](CO)NC(=O)[C@H](Cc1ccc(O)cc1)NC(=O)[C@H](CC(=O)O)NC(=O)[C@H](CO)NC(=O)[C@@H](NC(=O)[C@H](Cc1ccccc1)NC(=O)[C@@H](NC(=O)CNC(=O)[C@H](CCC(=O)O)NC(=O)C(C)(C)NC(=O)[C@@H](N)Cc1ccc(O)cc1)[C@@H](C)O)[C@@H](C)O)[C@@H](C)CC)[C@@H](C)CC)C(C)C)C(=O)N[C@@H](C)C(=O)NCC(=O)NCC(=O)N1CCC[C@H]1C(=O)N[C@@H](CO)C(=O)N[C@@H](CO)C(=O)NCC(=O)N[C@@H](C)C(=O)N1CCC[C@H]1C(=O)N1CCC[C@H]1C(=O)N1CCC[C@H]1C(=O)N[C@@H](CO)C(N)=O", "system": "healthy human", "conditions": "1.0 mg, single ascending dose", "endpoint": "feeling hot", "value": "0%"}
{"Molecule": "CN1CCCC1c1cc(C(=O)N2C[C@@H](F)C[C@H]2CNC(=O)c2cc3c(=O)[nH]ccn3n2)n[nH]1 (some centres unmarked)", "tested on": "rep main protease", "test": "inhibitor, high-throughput enzymatic", "conditions": "5 µM, mean of runs", "endpoint": "inhibition", "value": "11.1%"}
{"Molecule": "COC(=O)c1nc(C(F)(F)F)n2c1CN(C(=O)C[C@H](N)Cc1cc(F)c(F)cc1F)CC2.O=P(O)(O)O", "tested on": "rep main protease", "test": "reporter gene (mKate2), inhibitor", "conditions": "20 µM", "endpoint": "inhibition", "value": "-0.509%"}
{"note": "Some of these lines once more:"}
{"Molecule": "CC[C@H](C)[C@H](NC(=O)[C@H](CC(C)C)NC(=O)[C@H](Cc1c[nH]c2ccccc12)NC(=O)[C@H](CCC(N)=O)NC(=O)[C@@H](NC(=O)[C@H](Cc1ccccc1)NC(=O)[C@H](C)NC(=O)[C@H](CCCCNC(=O)COCCOCCNC(=O)COCCOCCNC(=O)CC[C@H](NC(=O)CCCCCCCCCCCCCCCCCCC(=O)O)C(=O)O)NC(=O)[C@H](CCC(N)=O)NC(=O)[C@H](C)NC(=O)[C@@H](NC(=O)[C@H](CCCCN)NC(=O)[C@H](CC(=O)O)NC(=O)[C@H](CC(C)C)NC(=O)C(C)(C)NC(=O)[C@@H](NC(=O)[C@H](CO)NC(=O)[C@H](Cc1ccc(O)cc1)NC(=O)[C@H](CC(=O)O)NC(=O)[C@H](CO)NC(=O)[C@@H](NC(=O)[C@H](Cc1ccccc1)NC(=O)[C@@H](NC(=O)CNC(=O)[C@H](CCC(=O)O)NC(=O)C(C)(C)NC(=O)[C@@H](N)Cc1ccc(O)cc1)[C@@H](C)O)[C@@H](C)O)[C@@H](C)CC)[C@@H](C)CC)C(C)C)C(=O)N[C@@H](C)C(=O)NCC(=O)NCC(=O)N1CCC[C@H]1C(=O)N[C@@H](CO)C(=O)N[C@@H](CO)C(=O)NCC(=O)N[C@@H](C)C(=O)N1CCC[C@H]1C(=O)N1CCC[C@H]1C(=O)N1CCC[C@H]1C(=O)N[C@@H](CO)C(N)=O", "system": "healthy human", "conditions": "1.0 mg, single ascending dose", "endpoint": "feeling hot", "value": "0%"}
